Experimental data from different studies.
Compare with care: the assays were run in different laboratories.

Cc1c(CN(C)C(=O)/C=C/c2cnc3c(c2)CC(NC(=O)OC(C)(C)C)C(=O)N3)oc2ccccc12 (centres unmarked) — MIC (Acinetobacter baumannii; broth microdilution; AR-0273): > 32 µg/mL
CC(=O)Nc1ccc(S(=O)(=O)Nc2c(C)nn(-c3ccccc3)c2C)cc1 — Kd (CDK2 (Homo sapiens, UniProt P24941); binding): > 100 µM
CC(C)C[C@@H]1NC(=O)[C@@H](Cc2ccccc2)NC(=O)[C@H](CCN)NC(=O)[C@@H](NC(=O)[C@H](CCN)NC(=O)[C@@H](N)[C@@H](C)O)CCNC(=O)[C@H]([C@@H](C)O)NC(=O)[C@H](CCN)NC(=O)[C@H](CCN)NC1=O — MIC (Escherichia coli; ATCC 25922; compound alone): > 200 µg/mL
CCn1c(SCC(=O)Nc2cccc(C(C)=O)c2)nnc1-c1ccncc1 — Kd (Cyclin-dependent kinase 2, with cyclin A (CDK2, Homo sapiens, UniProt P24941)): > 100 µM
CNC(C)C1CCC(N)C(OC2C(N)CC(N)C(OC3OCC(C)(O)C(NC)C3O)C2O)O1 (centres unmarked) — MIC (Pseudomonas aeruginosa; clinical isolate RKI-No_628/16): 4 µg/mL
Cc1ccc(CCC(=O)Nc2nnc(S(N)(=O)=O)s2)cc1 — MIC (Enterococcus faecium; HM-970): 0.184 µM
CC1(C)S[C@@H]2[C@H](NC(=O)[C@H](N)c3ccccc3)C(=O)N2[C@H]1C(=O)O — MIC (Salmonella enterica serovar Uganda; broth microdilution; clinical isolate RKI-No 206/14): > 16 µg/mL
N=C(N)c1ccc(OCc2ccccc2COc2ccc(C(=N)N)cc2)cc1 — MIC (Escherichia coli; W3110; in combination, checkerboard, together with: rifampicin): 50 µg/mL
CC(C)C[C@@H](NC(=O)[C@H](C)NC(=O)CNC(=O)[C@@H](NC=O)C(C)C)C(=O)N[C@@H](C)C(=O)N[C@@H](C(=O)N[C@H](C(=O)N[C@@H](C(=O)N[C@@H](Cc1c[nH]c2ccccc12)C(=O)N[C@H](CC(C)C)C(=O)N[C@@H](Cc1c[nH]c2ccccc12)C(=O)N[C@H](CC(C)C)C(=O)N[C@@H](Cc1c[nH]c2ccccc12)C(=O)N[C@@H](C(=O)N[C@@H](Cc1c[nH]c2ccccc12)C(=O)NCCO)C(C)C)[C@H](C)O)C(C)C)C(C)C — MIC (Streptococcus agalactiae; broth microdilution; JCM 5671): 8.6 µM
CC(=O)NC[C@H]1CN(c2ccc(N3CCOCC3)c(F)c2)C(=O)O1 — MIC (Enterococcus faecium; NR-31909): 2.96 µM
CC(C)CC1NC(=O)C(C(=O)NC(C(=O)NC2C(=O)N3C2SC(C)(C)C3C(=O)O)c2ccccc2)=C1O (centres unmarked) — MIC (Escherichia coli; broth microdilution; ATCC 25922 wild type; no clavulanic acid): 6.25 µg/mL
Cn1cc(-c2ccc(-c3cncc(Cl)c3N3CCC4(CCNC4=O)CC3)cc2)cn1 — fold change in expression (COLO 205; microarray, refers to: FLOT1; concentration not given, 2 h, gene set Flotillin-1; baseline: untreated cells): 2.08
Cc1c(CN(C)C(=O)/C=C/c2cnc3c(c2)CCC(=O)N3)oc2ccccc12 — MIC (Escherichia coli; broth microdilution; AR-0162): > 32 µg/mL
O=C(c1cc(Cl)c(Cl)[nH]1)c1c(O)ccc(Cc2ccc(O)c(C(=O)c3cc(Cl)c(Cl)[nH]3)c2O)c1O — MIC (clinically relevant pathogen panel; broth microdilution; range over all pathogens): ≥ 32 µg/mL

Repeated from above:
CC(C)C[C@@H]1NC(=O)[C@@H](Cc2ccccc2)NC(=O)[C@H](CCN)NC(=O)[C@@H](NC(=O)[C@H](CCN)NC(=O)[C@@H](N)[C@@H](C)O)CCNC(=O)[C@H]([C@@H](C)O)NC(=O)[C@H](CCN)NC(=O)[C@H](CCN)NC1=O — MIC (Escherichia coli; ATCC 25922; compound alone): > 200 µg/mL
